# Published values collected from several papers.
# Numbers after ± are the reported error.
# Sequence of UniProt P29317 (whole entry, looked up): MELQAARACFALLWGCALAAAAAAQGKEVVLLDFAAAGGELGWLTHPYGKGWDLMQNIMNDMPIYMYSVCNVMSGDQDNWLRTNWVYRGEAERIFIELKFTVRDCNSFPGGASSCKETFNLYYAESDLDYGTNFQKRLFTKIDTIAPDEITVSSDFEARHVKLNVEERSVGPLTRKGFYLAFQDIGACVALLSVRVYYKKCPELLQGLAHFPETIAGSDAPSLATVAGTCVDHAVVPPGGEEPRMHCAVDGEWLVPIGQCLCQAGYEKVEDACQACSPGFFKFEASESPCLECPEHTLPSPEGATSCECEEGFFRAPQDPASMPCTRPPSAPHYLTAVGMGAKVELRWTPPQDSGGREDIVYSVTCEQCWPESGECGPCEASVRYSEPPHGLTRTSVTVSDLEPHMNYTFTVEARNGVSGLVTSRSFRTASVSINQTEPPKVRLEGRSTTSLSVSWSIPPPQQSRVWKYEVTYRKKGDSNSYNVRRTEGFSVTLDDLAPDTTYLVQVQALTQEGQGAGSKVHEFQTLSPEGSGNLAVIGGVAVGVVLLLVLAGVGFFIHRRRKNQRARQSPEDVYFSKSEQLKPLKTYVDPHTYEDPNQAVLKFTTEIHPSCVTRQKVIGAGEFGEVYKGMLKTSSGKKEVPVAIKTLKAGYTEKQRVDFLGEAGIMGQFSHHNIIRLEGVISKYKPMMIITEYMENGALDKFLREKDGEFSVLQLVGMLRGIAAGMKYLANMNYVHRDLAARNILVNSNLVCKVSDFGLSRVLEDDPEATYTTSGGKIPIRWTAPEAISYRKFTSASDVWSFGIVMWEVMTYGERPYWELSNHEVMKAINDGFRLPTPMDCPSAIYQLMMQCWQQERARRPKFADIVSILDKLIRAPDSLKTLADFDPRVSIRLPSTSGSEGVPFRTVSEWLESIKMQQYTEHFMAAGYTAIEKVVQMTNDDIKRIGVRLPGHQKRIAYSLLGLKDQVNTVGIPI
# Sequence of UniProt P07384 (whole entry, looked up): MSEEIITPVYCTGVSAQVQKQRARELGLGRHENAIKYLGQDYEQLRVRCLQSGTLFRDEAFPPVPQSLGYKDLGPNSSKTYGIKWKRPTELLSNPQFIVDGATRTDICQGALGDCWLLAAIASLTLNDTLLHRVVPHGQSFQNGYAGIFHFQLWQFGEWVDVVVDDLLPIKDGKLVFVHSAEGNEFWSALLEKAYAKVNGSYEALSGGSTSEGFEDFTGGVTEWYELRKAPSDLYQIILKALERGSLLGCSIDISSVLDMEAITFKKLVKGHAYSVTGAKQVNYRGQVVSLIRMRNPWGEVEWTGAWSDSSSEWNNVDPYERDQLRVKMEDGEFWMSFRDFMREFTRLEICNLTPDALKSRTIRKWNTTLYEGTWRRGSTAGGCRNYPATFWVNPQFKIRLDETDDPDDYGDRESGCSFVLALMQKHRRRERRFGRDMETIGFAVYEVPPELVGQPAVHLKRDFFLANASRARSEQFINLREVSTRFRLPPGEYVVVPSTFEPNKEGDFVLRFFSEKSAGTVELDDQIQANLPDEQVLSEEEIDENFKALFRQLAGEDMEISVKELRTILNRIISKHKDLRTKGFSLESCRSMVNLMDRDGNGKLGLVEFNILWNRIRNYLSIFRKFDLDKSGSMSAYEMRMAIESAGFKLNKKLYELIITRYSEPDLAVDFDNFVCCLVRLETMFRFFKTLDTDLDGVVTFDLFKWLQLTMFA
# Sequence of UniProt P31645 (whole entry, looked up): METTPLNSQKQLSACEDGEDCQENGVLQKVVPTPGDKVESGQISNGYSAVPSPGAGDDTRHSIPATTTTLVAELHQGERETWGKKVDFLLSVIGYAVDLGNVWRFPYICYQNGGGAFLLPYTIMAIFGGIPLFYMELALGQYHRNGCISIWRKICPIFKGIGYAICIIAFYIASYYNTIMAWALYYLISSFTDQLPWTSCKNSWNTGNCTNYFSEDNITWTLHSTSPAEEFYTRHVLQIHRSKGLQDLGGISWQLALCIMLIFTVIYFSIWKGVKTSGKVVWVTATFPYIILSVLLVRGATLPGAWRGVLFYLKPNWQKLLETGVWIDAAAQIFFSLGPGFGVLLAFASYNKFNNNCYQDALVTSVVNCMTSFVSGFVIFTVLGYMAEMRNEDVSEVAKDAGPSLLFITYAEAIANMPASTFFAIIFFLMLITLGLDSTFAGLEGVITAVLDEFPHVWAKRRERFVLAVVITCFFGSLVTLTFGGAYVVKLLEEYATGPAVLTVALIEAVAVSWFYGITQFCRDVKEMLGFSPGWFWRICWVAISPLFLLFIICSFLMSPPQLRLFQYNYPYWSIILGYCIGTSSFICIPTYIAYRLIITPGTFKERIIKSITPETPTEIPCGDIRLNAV
# Sequence of UniProt P98170 (whole entry, looked up): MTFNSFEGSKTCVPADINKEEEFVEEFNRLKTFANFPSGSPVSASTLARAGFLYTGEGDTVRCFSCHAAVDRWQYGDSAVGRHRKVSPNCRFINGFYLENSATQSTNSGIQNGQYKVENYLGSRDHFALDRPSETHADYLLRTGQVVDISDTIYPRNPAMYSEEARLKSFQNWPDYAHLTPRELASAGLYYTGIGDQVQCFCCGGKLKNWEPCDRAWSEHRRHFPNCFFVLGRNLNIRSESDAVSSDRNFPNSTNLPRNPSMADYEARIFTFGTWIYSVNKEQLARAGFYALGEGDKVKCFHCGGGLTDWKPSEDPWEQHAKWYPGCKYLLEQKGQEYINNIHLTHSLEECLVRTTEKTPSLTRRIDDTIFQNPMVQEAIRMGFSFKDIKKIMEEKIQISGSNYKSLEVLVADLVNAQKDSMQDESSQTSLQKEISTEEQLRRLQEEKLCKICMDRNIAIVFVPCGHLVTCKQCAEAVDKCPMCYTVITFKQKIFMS
# Sequence of UniProt Q08638 (whole entry, looked up): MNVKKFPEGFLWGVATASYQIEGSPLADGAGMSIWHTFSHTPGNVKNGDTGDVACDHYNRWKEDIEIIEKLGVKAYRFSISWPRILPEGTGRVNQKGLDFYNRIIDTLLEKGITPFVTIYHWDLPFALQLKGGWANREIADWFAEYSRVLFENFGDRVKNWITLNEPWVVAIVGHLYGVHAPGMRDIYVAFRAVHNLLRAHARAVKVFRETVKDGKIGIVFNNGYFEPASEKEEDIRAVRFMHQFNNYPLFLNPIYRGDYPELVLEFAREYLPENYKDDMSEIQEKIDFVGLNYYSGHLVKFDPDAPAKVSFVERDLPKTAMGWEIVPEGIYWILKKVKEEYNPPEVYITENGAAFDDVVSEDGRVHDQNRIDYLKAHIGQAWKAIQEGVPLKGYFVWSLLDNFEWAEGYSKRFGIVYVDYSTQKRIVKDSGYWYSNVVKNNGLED
# Sequence of UniProt P14416 (whole entry, looked up): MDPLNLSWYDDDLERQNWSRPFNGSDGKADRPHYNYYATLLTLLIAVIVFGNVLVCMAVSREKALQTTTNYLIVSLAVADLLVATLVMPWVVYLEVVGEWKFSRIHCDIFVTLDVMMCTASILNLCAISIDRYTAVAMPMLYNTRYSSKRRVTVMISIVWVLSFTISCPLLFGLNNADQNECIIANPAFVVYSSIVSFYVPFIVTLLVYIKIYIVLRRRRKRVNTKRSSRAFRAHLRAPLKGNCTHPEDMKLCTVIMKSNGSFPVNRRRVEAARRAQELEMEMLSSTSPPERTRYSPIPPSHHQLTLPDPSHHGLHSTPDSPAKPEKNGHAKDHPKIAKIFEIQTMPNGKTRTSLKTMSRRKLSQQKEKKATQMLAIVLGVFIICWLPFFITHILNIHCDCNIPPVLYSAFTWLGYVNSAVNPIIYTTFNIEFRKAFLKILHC
# Sequence of UniProt P69328 (whole entry, looked up): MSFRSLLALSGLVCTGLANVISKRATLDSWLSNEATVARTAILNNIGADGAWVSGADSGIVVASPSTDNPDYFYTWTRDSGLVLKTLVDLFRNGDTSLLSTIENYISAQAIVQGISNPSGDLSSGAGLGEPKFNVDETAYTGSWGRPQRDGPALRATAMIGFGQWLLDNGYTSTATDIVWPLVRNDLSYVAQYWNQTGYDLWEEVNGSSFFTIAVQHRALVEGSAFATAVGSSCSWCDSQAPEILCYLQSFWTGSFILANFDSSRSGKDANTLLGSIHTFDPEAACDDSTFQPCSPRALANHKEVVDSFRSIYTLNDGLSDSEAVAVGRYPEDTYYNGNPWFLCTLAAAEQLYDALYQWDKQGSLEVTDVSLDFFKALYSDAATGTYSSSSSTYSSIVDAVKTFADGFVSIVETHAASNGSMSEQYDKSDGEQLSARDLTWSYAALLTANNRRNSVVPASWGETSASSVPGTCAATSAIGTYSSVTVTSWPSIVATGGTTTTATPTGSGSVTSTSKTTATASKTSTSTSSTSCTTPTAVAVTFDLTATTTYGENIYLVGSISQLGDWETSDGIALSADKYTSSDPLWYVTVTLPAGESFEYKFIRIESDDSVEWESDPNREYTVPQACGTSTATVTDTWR
Compound,target,test,setting,Ki
CCC(NC(=O)C(CC(C)C)NC(=O)NCc1ccccc1)C(=O)C(=O)NCc1cc(F)cc(OC)c1 (centres unmarked),"CAPN1 (Homo sapiens, UniProt P07384)","enzyme activity, inhibitor, fluorescence",,0.072 µM
CN[C@@H](C)C(=O)N[C@H]1CN(C(=O)Cc2ccccc2)CC[C@H]2CC[C@@H](C(=O)NCc3ccc(Cl)cc3)N2C1=O,"E3 ubiquitin-protein ligase XIAP, BIR3 (XIAP, Homo sapiens, UniProt P98170)","ligand displacement, FP",,0.87 µM
CC[C@H](C)[C@H](NC(=O)[C@@H](NC(=O)[C@H](CO)NC(=O)[C@@H](NC(=O)[C@H](CCC(N)=O)NC(=O)[C@H](CCSC)NC(=O)[C@@H](N)CS)[C@@H](C)O)[C@@H](C)CC)C(=O)O,"Na(+)/H(+) exchange regulatory cofactor NHE-RF2, PDZ domain 2 (Homo sapiens, UniProt Q15599)","binding to PDZ2 domain, inhibitor, fluorescence polarization",,166 ± 104 µM
CCC[C@@H]1[C@H](O)[C@@H](O)[C@H](O)[C@@H](CO)N1C(=S)NCc1ccccc1,"bglA (Thermotoga maritima, UniProt Q08638)",competitive inhibitor,added: p-nitrophenyl glucopyranoside,> 2000 µM
CNCc1c(OCc2ccc(F)cc2)ccc2ccccc12,"SLC6A4 (Homo sapiens, UniProt P31645)","ligand displacement, radioligand",cell membranes,1.03 µM
OC[C@@H](CNCc1cn2cc(Cl)ccc2n1)CC1CCCC1,"DRD2 (Homo sapiens, UniProt P14416)","ligand displacement, radioligand",,4.78 µM
CCCC/N=C1/SC[C@@H]2[C@@H](O)[C@H](O)[C@@H](O)[C@@H](CCC)N12,"Glucoamylase (GLAA, Aspergillus niger, UniProt P69328)","enzyme activity, competitive inhibitor","optimal pH, added: p-nitrophenyl glycopyranoside",> 2000 µM
CNC(=O)C1CCN(c2cc(C)ccc2NC(=O)c2ccc(-c3cc(O)ccc3C)c(C)c2)CC1,"EPHA2 (Homo sapiens, UniProt P29317)","enzyme activity, inhibitor",,0.001 µM

# Repeated from above:
Compound,target,test,setting,Ki
CCCC/N=C1/SC[C@@H]2[C@@H](O)[C@H](O)[C@@H](O)[C@@H](CCC)N12,"Glucoamylase (GLAA, Aspergillus niger, UniProt P69328)","enzyme activity, competitive inhibitor","optimal pH, added: p-nitrophenyl glycopyranoside",> 2000 µM
